Experimental data of several laboratories.
Lines come from different studies, so protocols differ. Values joined by “and” are separate records of one study, mostly repeats; a detail may differ. ± gives the spread as reported.

SMILES | assay | system | conditions | how to read | quantity | value
O=C(Nc1nc2cccc(-c3ccc(CN4CCS(=O)(=O)CC4)cc3)n2n1)C1CC1 | item: hypercholesterolaemia | human rheumatoid arthritis patients | oral, 75 mg once daily, 4 weeks, regardless of relatedness | – | treatment-emergent adverse events | 4.5%
CC[C@@H]1CN(C(=O)NCC(F)(F)F)C[C@@H]1c1cnc2cnc3[nH]ccc3n12 | population PK model | healthy, RA and CD subjects, plasma | oral, immediate-release formulation | – | Vp/F | 66.3 L
Cc1nc(-c2ccc(OCC(C)C)c(C#N)c2)sc1C(=O)O | – | KM mouse, chronic hyperuricaemia model | dose not given, day 14 | – | body weight | 35.4 g and 29.5 g and 34.9 g and 31.3 g and 32.1 g and 38.4 g
CCOc1c([C@H](C)n2nc(C)c3c(N)ncnc32)cc(Cl)c(F)c1[C@@H]1CNC(=O)C1 | – | patients, monotherapy | oral, 15 mg once daily, cycle 1 day 1 | – | AUC(0-last) geometric mean | 3.69 µM·h
Cn1cc([C@H]2C[C@H]3CSC(N)=N[C@@]3(c3ccc(F)cc3F)CO2)cn1 | – | male 129/SVE mouse, brain | subcutaneous, 3 mg/kg, 1 h | – | brain concentration | 159 nM
CNC(=O)c1ccc(-c2cnc3ncc(Cc4ccc5ncccc5c4)n3n2)cc1F | item: Dyspepsia, all grades | cancer patients | oral, dose not given, dose escalation, any causality | – | patients with adverse event | 8%
COc1cccc(-c2n[nH]c(SCc3ccccn3)n2)c1OC | – | Sprague-Dawley rats, both sexes | oral dietary, 10 mg/kg/day, day 90, 6 h | – | plasma concentration | 846 ng/mL
CC(C)c1nc(N(C)S(C)(=O)=O)nc(-c2ccc(F)cc2)c1/C=C/[C@@H](O)C[C@@H](O)CC(=O)O | item: oropharyngeal pain | healthy men | oral, dose not given, 8 days, treatment-emergent, crossover trial | – | subjects with adverse event | 0%
Cc1nc2ccc(F)cc2n1-c1nc(N)c(F)c(Nc2ccc(C(F)(F)F)cc2)n1 | – | leiomyosarcoma patients | 400 mg twice weekly, added: dacarbazine 1000 mg/m^2 | relative to: subjects | myelosuppression-related DLT | 75%
COCCN(C)C(=O)c1ccc([C@H]2[C@@H](F)[C@@H](F)C[C@@H](F)[C@H]2F)cc1 | liver microsome stability | human liver microsomes | 1 µM, without NADPH | – | hepatic clearance | 3.9 mL/min/kg
Cn1cc(Nc2nccc(-c3ccc4c(c3)CN(C3COC3)CC[C@H]4NC(=O)c3cn(C(C)(C)C)nn3)n2)cn1 | – | human, whole blood | 300 mg twice daily, day 14 | relative to: pre-dose baseline | CD3+ T cell count change | -5.88%
C[C@@H](N)C1CCN(S(=O)(=O)c2cccc3cnccc23)CC1 | – | healthy volunteers | 150 mg, fasted | – | participants with photophobia | 0%
C=CC(=O)N1CCC([C@@H]2CCNc3c(C(N)=O)c(-c4ccc(Oc5ccccc5)cc4)nn32)CC1 | – | healthy human volunteers | oral, dose not given | – | TEAE contact dermatitis | 4.7%
COc1cc(OC)c2nccc(N3CCc4c(cc(Cn5ccnc5)cc4-c4cn(C)nc4C(F)(F)F)C3=O)c2c1 | – | CD-1 mouse, male, plasma | oral, 50 mg/kg | – | AUC extrapolated | 0.1%
O=C(COc1ccc(Cl)cc1)NC12CC(c3nnc([C@H]4C[C@@H](OC(F)(F)F)C4)o3)(C1)C2 | item: muscle spasms | human | oral, 200 mg once daily, 14 days | – | adverse event incidence | 14.3%
Cc1ccc(Sc2ccccc2N2CCNCC2)c(C)c1 | item: Nausea | healthy adult men | oral, 20 mg single dose, 10 day | – | participants with TEAE | 0%
O=C(Cc1cccnc1)Nc1ccc([C@H]2[C@@H](F)[C@@H](F)C[C@@H](F)[C@H]2F)cc1 | – | cryopreserved mouse hepatocytes | 1 µM | – | hepatic clearance | 23 mL/min/kg
Cc1ccc([C@@H]2O[C@H](CO)[C@@H](O)[C@H](O)[C@H]2O)cc1Cc1ccc(-c2ccc(F)cc2)s1 | item: inorganic phosphorus | Japanese type 2 diabetes patients | 25 mg, day 16, 24 h urine collection | relative to: baseline | urinary phosphate excretion change | -53.4 mg
CCC(C)n1ncn(-c2ccc(N3CCN(c4ccc(OCC5COC(Cn6cncn6)(c6ccc(Cl)cc6Cl)O5)cc4)CC3)cc2)c1=O (centres unmarked) | item: painful defaecation | healthy human participants | oral, 200 mg, compound alone cohort | – | adverse event incidence | 0%

SMILES | assay | system | conditions | how to read | quantity | value
CN1C(=O)[C@@H](NC(=O)c2nnc(Cc3ccccc3)[nH]2)COc2cccnc21 | – | human, plasma | oral, 200 mg once daily, day 1, median | – | Tmax | 3 h
COc1ccc2c(c1)CN(C(=O)CCN1CCC(Cc3ccccc3)CC1)CC[S@@+]2[O-] | telemetry | conscious dogs | intravenous, 2 mg/kg, before dosing | – | PQ interval | 94 ± 12 ms
Cc1c(-c2ccc(N3CCc4cccc(C(=O)Nc5nc6ccccc6s5)c4C3)nc2C(=O)O)cnn1CC12CC3(C)CC(C)(C1)CC(OCCNCC[C@H](O)CO)(C3)C2 | – | beagle dog, male, anaesthetised | intravenous infusion, 0.3 mg/kg/min, 15 min | relative to: vehicle | mean arterial pressure change | -5%
Cc1cc(C)c(CNC(=O)c2cc(Cl)c3c(c2C)O[C@@](C)([C@H]2CC[C@H](N(C)C)CC2)O3)c(=O)[nH]1 | – | human, male | oral, dose not given, added: fluconazole | relative to: compound alone | AUCinf fold increase | 1.6 fold and ~1.6 fold
CN(C(=O)n1cnc(-c2cccnc2)c1)[C@H]1CC[C@H](O)CC1 | – | Wistar rat, midbrain | oral, 10 mg/kg of BIA 10-2474, 1 h, single dose | – | concentration | 18.6 ± 0.9 ng/g
CC(C(=O)NCC(=O)NCC(CNC(=O)CNC(=O)C(C)N1CCN(CC(=O)[O-])CCN(CC(=O)[O-])CCN(CC(=O)[O-])CC1)(CNC(=O)CNC(=O)C(C)N1CCN(CC(=O)[O-])CCN(CC(=O)[O-])CCN(CC(=O)[O-])CC1)CNC(=O)CNC(=O)C(C)N1CCN(CC(=O)[O-])CCN(CC(=O)[O-])CCN(CC(=O)[O-])CC1)N1CCN(CC(=O)[O-])CCN(CC(=O)[O-])CCN(CC(=O)[O-])CC1.[Gd+3].[Gd+3].[Gd+3].[Gd+3] (centres unmarked) | – | cynomolgus monkey, skin | dose not given, day 58, PK group | – | lanthanide tissue concentration | 0.021 ± 0.009 nmol/g
COc1ccc([C@@H](O)c2cc(-c3ncnc4cc(N5CCOCC5)ccc34)c(F)cc2Cl)nn1 | – | locally advanced rectal cancer patients | 250 mg, added: capecitabine and radiotherapy | – | drug-related gastrointestinal AE | 83%
CCn1ncc2c1-c1cnc(N)c(c1)O[C@H](C)c1cc(F)ccc1-c1nn(C)nc1C2 | – | female athymic nude mice, sample B PDX | oral, 15 mg/kg twice daily for 21 days, 12 h | – | unbound plasma trough concentration | 264 ± 37 nM
CN(CCC#N)C(=O)c1ccc(C2CCCCC2)cc1 | liver microsome stability | mouse liver microsomes | 1 µM | – | hepatic clearance | 87 mL/min/kg
CCN1/C(=C/C(C)=O)Sc2ccc(F)cc21 | – | cynomolgus monkey | oral, 100 mg/kg, 6 h post-dose | – | QTc interval (Bazett) | 335 ± 18 ms
CN1CCN(C(=O)c2ccc(C3CCCCC3)cc2)CC1 | liver microsome stability | dog liver microsomes | 1 µM | – | hepatic clearance | 30 mL/min/kg
COc1ccnc(C(=O)N[C@H]2COC(=O)[C@H](Cc3ccccc3)[C@@H](O)[C@H](C)OC2=O)c1O | soil adsorption | clay soil | pH 7.6, organic carbon 1.7 % | – | KFoc | 731 mL/g
[18F]c1ccc(-c2ccc3c(c2)[nH]c2ccncc23)cn1 | ex vivo biodistribution | B6SJL mouse, normal, heart | intravenous, 30 min | – | SUV | 0.625 ± 0.181
C=CC(=O)N1CCC(c2ccc(C(N)=O)c(-c3ccc(Oc4ccccc4)cc3)n2)CC1 | CTCAE 4.03 | patients with relapsed/refractory MCL | oral, dose not given | – | incidence of serious GI necrosis | 0.9%
Cc1cn(C(=O)c2c(-c3c(Cl)cc(Cl)cc3Cl)noc2C(C)(C)F)c2cccc(/C=C/C(=O)O)c12 | – | human patients | 500 mg bid, cycle 8 day 1 | – | AUC(0-8h) | 195 µg·h/mL
Cc1cc(NC2CCN(C(=O)OC3CCN(C(=O)/C=C/CN(C)C)C3)CC2)n2ncc(C(C)C)c2n1 (centres unmarked) | Phase I dose escalation CTCAE v4.0, item: pain in extremity | patients with advanced solid tumours | dose not given, Total dosing grade 3 or higher | – | patients with adverse event | 0%
COc1cc(C(=O)N2CCC3(CC2)CC(=O)c2c(cnn2C(C)C)C3)cc(-c2ccc(C(=O)O)cc2)n1 | item: HDL cholesterol | human, fasting serum | 1 mg every 12 h, day 13, adjusted geometric mean | relative to: baseline | percentage change from baseline | -3.5%
O=C(NCc1cc[nH]n1)c1ccc([C@H]2[C@@H](F)[C@@H](F)C[C@@H](F)[C@H]2F)cc1 | liver microsome stability | mouse liver microsomes | 1 µM | – | hepatic clearance | 14 mL/min/kg
CC(C)(c1ccc(O)cc1)c1ccc(O)cc1 | – | whole cow milk | 200 nM nominal | – | dose fraction in milk fat | 39.4%

SMILES | assay | system | conditions | how to read | quantity | value
O=C(c1ccc([C@H]2[C@@H](F)[C@@H](F)C[C@@H](F)[C@H]2F)cc1)N1CC(O)C1 | hepatocyte stability | cryopreserved rat hepatocytes | 1 µM | – | hepatic clearance | 10 mL/min/kg
C=C1C[C@@H]2[C@H](CC[C@]3(C)C(=O)CC[C@@H]23)[C@@]2(C)C=CC(=O)C=C12 | – | postmenopausal women, serum | oral, 25 mg daily, 1 year, mean of detectable specimens | – | serum concentration | 25 nM
C[C@@H]1CCO[C@H]2Cn3cc(C(=O)NCc4ccc(F)cc4F)c(=O)c(O)c3C(=O)N12 | population PK, post-hoc | children, 25 to <30 kg, plasma | oral, 22.4 mg granules, 24 h, steady state, geometric mean | – | plasma concentration | 938 ng/mL
O=C(O)CCC(=O)O.[2H]C([2H])([2H])Oc1cc(C)c2[nH]ccc2c1CN1CC[C@@H](C2CC2)C[C@H]1c1ccc(C(=O)O)cc1 | – | healthy Chinese subjects | 600 mg, single ascending dose | – | TEAE elevated blood triglycerides | 16.7%
CC(C)C[C@@H]1NC(=O)[C@H](C)NC(=O)[C@H](Cc2ccccc2)NCc2ccc([nH]2)CNC1=O | PAMPA | 2% lecithin in dodecane | 100 µM, 17 h, pH 6.4, 37 °C | – | -log Pe | 7.72 + 0.21
CCc1nc(C(N)=O)c(Nc2ccc(N3CCC(N4CCN(C)CC4)CC3)c(OC)c2)nc1NC1CCOCC1 | – | Japanese patients, plasma | oral, 120 mg, cycle 0 day -2, single dose, median | – | Cmax | 166 ng/mL
O=C1CC[C@H](N2Cc3cc(N4CCN(CC5CCN(c6ccc([C@@H]7c8ccc(O)cc8CC[C@@H]7c7ccccc7)cc6)CC5)CC4)ccc3C2=O)C(=O)N1 | – | human | oral, 200 mg, added: dabigatran etexilate 75 mg | – | participants with TRAEs | 4.2%
CNCc1ccc(-c2[nH]c3cc(F)cc4c3c2CCNC4=O)cc1 | – | human patients | oral, 600 mg twice daily, grade 4 | – | pulmonary embolism incidence | 0%
COc1ccnc(C(N)=O)c1O | soil adsorption | clay loam soil | pH 7.2, organic carbon 4.4 % | – | KFoc | 396 mL/g
COc1ccc2c(=O)n(C)c(-c3ccccc3)nc2c1 | – | Sprague-Dawley rat, male, large intestine | oral, 30 mg/kg, 2 h | – | concentration | 500 ng/mL
CC(C)(C(=O)N1CCOc2c(C#N)cncc2C1)C(F)F | item: gastrointestinal disorders | human | oral, 10 mg, CSF pharmacokinetic cohort | – | subjects with adverse event | 16.7%
C=CCn1c(=O)c2cnc(Nc3ccc(N4CCN(C)CC4)cc3)nc2n1-c1cccc(C(C)(C)O)n1 | – | human patients | oral, 125 mg twice daily, day 17, cycle 1, added: durvalumab 1500 mg iv | – | AUC(0-10 h) | 4.46 µM·h
N#Cc1ccc2c(c1)[C@H]1CCCN(C(=O)c3ccc4[nH]cnc4c3)[C@H]1C2 | – | human | 240 mg, end of trial | – | minimum ACTH level | 2 pmol/L
O=C(Nc1cnccc1Cl)N1CCN(Cc2ccc3c(c2)OC(F)(F)O3)CC1 | multiple ascending dose | elderly men and women | 100 mg, treatment-emergent adverse events | – | hepatic enzyme increased | 33.3%
O=C(Cc1cccnc1)Nc1ccc(C2CCCCC2)cc1 | – | mouse liver microsomes | 1 µM | – | hepatic clearance | 82 mL/min/kg
CC(C)Nc1nc2cc(Cl)c(Cl)cc2n1[C@H]1O[C@@H](CO)[C@H](O)[C@@H]1O | population PK model | human | oral, 70 kg body weight | – | Vp/F | 7.1 L
O=C(Nc1ccc(C2CCCCC2)cc1)[C@H]1CC1(F)F | liver microsome stability | cynomolgus liver microsomes | 1 µM | – | hepatic clearance | 35 mL/min/kg
C=CC(=O)NC1CCN(c2ncc3ncnc(Nc4ccc(Oc5ccc6c(c5)ncn6C)c(C)c4)c3n2)CC1 | – | human, male, plasma | oral, 30 mg single dose, fed, geometric mean | – | AUC(0-tz) | 4.06 µM·h
